{"data": "Experimental data gathered from unrelated publications", "note": "± gives the spread as reported. Ends that are not written are not given here."}
{"Molecule": "Cc1ccc(-c2ncc(Cl)cc2-c2ccc(S(C)(=O)=O)cc2)cn1", "test": "inhibitor", "test system": "patients after hip surgery, hip drain tissue exudate", "conditions": "dose not given, 24 h observation period", "endpoint": "PGE2 production", "value": "inhibited"}
{"Molecule": "Cc1ccc(NC(=O)c2ccc(CN3CCN(C)CC3)cc2)cc1Nc1nccc(-c2cncc(-c3oncc3C)c2)n1", "test system": "mild-to-moderate Parkinson's disease patients", "conditions": "oral, 100 mg once daily, pre-dose baseline, on anti-Parkinson medication", "how to read": "direction not given", "endpoint": "PDQ-39 score", "value": "15.3 ± 9.1"}
{"Molecule": "N[C@@H](CC(=O)N1CCn2c(nnc2C(F)(F)F)C1)Cc1cc(F)c(F)cc1F", "test system": "type 2 diabetes patients on metformin", "conditions": "oral, 100 mg once daily, 28 weeks, sitting, mean of 2 readings, together with: exenatide 2.0 mg weekly subcutaneous", "endpoint": "heart rate", "value": "74.8 beats/min"}
{"Molecule": "Cc1c(C(=O)Nc2ccc(N3C[C@@H](C)O[C@@H](C)C3)nc2)cccc1-c1ccc(OC(F)(F)F)cc1", "test": "cell growth, 3H-thymidine uptake", "test system": "Gli2-amplified resistant medulloblastoma cells, Gli2 siRNA knock-down, mouse", "conditions": "ex vivo", "endpoint": "IC50", "value": "100 nM"}
{"Molecule": "gamma-MSH", "test system": "Sprague Dawley rat, urethane-anaesthetised", "conditions": "intravenous, 15 nmol, response decreased by 90%", "endpoint": "MAP response resolution time", "value": "4.5 ± 0.6 min"}
{"Molecule": "COc1ccc2c(Cc3ccccc3F)c3n(c(=O)c2c1OC)CCc1cc2c(cc1-3)OCO2", "test system": "mouse, collagen-induced arthritis, splenocytes", "conditions": "oral, 15 and 60 mg/kg, 24 h, together with: LPS 1 µg/mL", "how to read": "reference: vehicle", "endpoint": "TNF-α and IL-6 production", "value": "decreased"}
{"Molecule": "polymyxin B", "test system": "EYPG vesicles", "conditions": "10 µg/mL, 250 s, pH 7.4, 25 °C", "how to read": "reference: Triton X-100", "endpoint": "carboxyfluorescein leakage", "value": "53%"}
{"Molecule": "C[C@H]1CC[C@H](n2c3cnccc3c3cnc(Nc4ccc5c(n4)CCN(C(=O)CO)C5)nc32)CC1", "test": "STAT5 Tyr694 phosphorylation", "test system": "mouse, orthotopic MOLM13-Luc tumour, femur", "conditions": "plasma concentration, model estimate", "endpoint": "IC50", "value": "6.08 nM"}
{"Molecule": "SIYNFEKL", "test": "flow cytometry, item: CD44hi CD8+ T cells", "test system": "peptide, OT-I CD8+ T cells, mouse", "conditions": "dose not given, primed 5 days, TGF-β1 from day 2 onward, together with: 20 ng/mL TGF-β1", "endpoint": "cytokine-negative cells", "value": "24.1%"}
{"Molecule": "c1cnc2c(c1)ccc1cccnc12", "test system": "chloroplast extract", "conditions": "concentration not given, up to 30 min", "endpoint": "transit peptide degradation", "value": "stable"}
{"Molecule": "CYILNCPIG ([Leu4,Ile8]oxytocin; ends and bridges not checked; cysteine pairing not given here; sequence looked up)", "test": "antagonist", "test system": "peptide, Bufo marinus urinary bladder", "conditions": "together with: oxytocin", "endpoint": "pA2", "value": 5.94}
{"Molecule": "Oc1ncnc2[nH]ncc12", "test system": "male gout patients, serum", "conditions": "300 mg, 24 h, steady state, together with: verinurad 10 mg alone or combined", "how to read": "reference: baseline", "endpoint": "change in serum uric acid", "value": "-36%"}
{"Molecule": "Cn1cnc2ncn(Cc3nc(CCc4ccc(Cl)cc4)no3)c(=O)c21", "test": "Randall-Selitto", "test system": "rat, CFA inflammatory pain", "conditions": "300 mg/kg, 2 h", "endpoint": "paw withdrawal threshold", "value": "87.6 ± 4.4 g"}
{"Molecule": "cotadutide", "test": "mixed-meal tolerance test", "test system": "human, type 2 diabetes, CKD", "conditions": "subcutaneous, 50 to 300 µg once daily, day 32", "how to read": "reference: baseline", "endpoint": "change in glucose AUC(0-4h)", "value": "-26.7%"}
{"Molecule": "CN(C)C(=O)N[C@H]1CC[C@H](CCN2CCN(c3cccc(Cl)c3Cl)CC2)CC1", "test system": "Sprague-Dawley rat, ouabain-induced mania", "conditions": "ip, 0.06 mg/kg daily, 7 days, squares in 30 min, together with: ouabain icv single", "endpoint": "open field activity", "value": "112 ± 22.9 squares crossed"}
{"Molecule": "CC[C@H](C)[C@H](NC(=O)[C@H](CCC(N)=O)NC(=O)[C@H](Cc1c[nH]cn1)NC(=O)[C@H](C)NC(=O)[C@H](CC(C)C)NC(=O)[C@H](CCCCN)NC(=O)[C@H](CCC(N)=O)NC(=O)[C@@H](NC(=O)[C@@H](NC(=O)[C@@H]1CSSC[C@H](NC(=O)CNC(=O)[C@H](Cc2ccccc2)NC(=O)[C@H](CO)NC(=O)[C@H](CCCNC(=N)N)NC(=O)[C@H](CC(C)C)NC(=O)CNC(=O)[C@H](CCC(N)=O)NC(=O)[C@H](Cc2ccccc2)NC(=O)[C@H](CC(N)=O)NC(=O)[C@H](CC(N)=O)NC(=O)[C@H](CCSC)NC(=O)[C@H](CO)NC(=O)[C@H](CCC(N)=O)NC(=O)[C@H](CCCNC(=N)N)NC(=O)[C@@H](N)Cc2ccc(O)cc2)C(=O)N[C@@H](CCCNC(=N)N)C(=O)N[C@@H](Cc2ccccc2)C(=O)NCC(=O)N[C@@H]([C@@H](C)O)C(=O)N1)[C@@H](C)O)C(C)C)C(=O)N[C@@H](Cc1ccc(O)cc1)C(=O)N[C@@H](CCC(N)=O)C(=O)N[C@@H](Cc1ccccc1)C(=O)N[C@H](C(=O)N[C@@H](CC(=O)O)C(=O)N[C@@H](CCCCN)C(=O)N[C@@H](CC(=O)O)C(=O)N[C@@H](CCCCN)C(=O)N[C@@H](CC(=O)O)C(=O)N[C@@H](CC(N)=O)C(=O)N[C@H](C(=O)N[C@@H](C)C(=O)N1CCC[C@H]1C(=O)N[C@@H](CCCNC(=N)N)C(=O)N[C@@H](CO)C(=O)N[C@@H](CCCCN)C(=O)N[C@H](C(=O)N[C@@H](CO)C(=O)N1CCC[C@H]1C(=O)N[C@@H](CCC(N)=O)C(=O)NCC(=O)N[C@@H](Cc1ccc(O)cc1)C(N)=O)[C@@H](C)CC)C(C)C)[C@@H](C)O", "test system": "patients, biologic-resistant Crohn's disease", "conditions": "intravenous infusion, 15 ng/kg/min, 16 weeks, unit not given, together with: biologic", "how to read": "reference: baseline", "endpoint": "change in CDAI", "value": "-84 ± 62"}
{"Molecule": "Polymyxin B", "test system": "human whole blood", "conditions": "50 ng/mL, 4 h, 37 °C, together with: E. coli LPS 0.5 ng/mL", "how to read": "reference: LPS without compound", "endpoint": "IL-8 release", "value": "59.1 ± 19.4%"}
{"Molecule": "CC(C)[C@](O)(c1ccc2cc(OC(F)F)c(OC(F)F)cc2c1)c1c[nH]nn1", "test system": "human patients", "conditions": "dose not given, cycle 2 day 1", "how to read": "reference: baseline", "endpoint": "serum estradiol decline median", "value": "-52%"}
{"Molecule": "COc1ccc(/C(CSc2nnc(-c3nnn(-c4ccc(S(N)(=O)=O)cc4)c3C)n2-c2ccc(OC)cc2)=N\\O)cc1", "test": "Griess", "test system": "phosphate buffer-methanol", "conditions": "100 µM, 1 h, pH 7.4, 37 °C, together with: N-acetylcysteine 0.5 mM", "how to read": "reference: theoretical maximum release", "endpoint": "NO released", "value": "2.55%"}
{"Molecule": "SIIVFEKL", "test": "flow cytometry, item: CD44hi CD8+ T cells", "test system": "peptide, OT-I CD8+ T cells, mouse", "conditions": "dose not given, primed 5 days, TGF-β1 from day 2 onward, together with: 20 ng/mL TGF-β1", "endpoint": "TNF-α only cells", "value": "0.04%"}
{"Molecule": "O=C(/C=C/c1ccc(O)c(O)c1)c1ccc(O)c(O)c1O", "test system": "ethanol", "conditions": "20 µM, 30 min", "endpoint": "DPPH scavenging", "value": "> 80%"}
{"Molecule": "CS/C(S)=N/CCCC[S+](C)[O-] (racemic)", "test": "RT-PCR, item: Gstp1", "test system": "rat, liver", "conditions": "oral gavage, 200 mg/kg, 96 h, dosed for four days", "how to read": "reference: vehicle", "endpoint": "mRNA fold change", "value": 1.61}
{"Molecule": "O=c1cc(-c2ccccc2)oc2c1ccc1ccccc12", "test": "item: 18:1-LPC/18:0-LPC and 16:1-LPC/16:0-LPC", "test system": "C57BL/6J mice", "conditions": "i.p., 80 mg/kg/day, 7 days, together with: elemicin 500 mg/kg oral", "how to read": "reference: elemicin alone", "endpoint": "LPC ratios", "value": "increased"}
{"Molecule": "COc1ccc2c(c1)c(CC(=O)O)c(C)n2C(=O)c1ccc(Cl)cc1", "test": "multiplex bead immunoassay, item: IL-5", "test system": "CD-1 mice, serum", "conditions": "ip, 20 mg/kg, three-injection regimen, together with: LPS 3 mg/kg", "endpoint": "cytokine level", "value": "155 ± 94.4 pg/mL"}
{"Molecule": "CCCn1c(=O)n(C2CC2)c(=O)c2[nH]c(-c3ccc(N(CC)C(=O)c4cccnc4)nc3)nc21", "test": "hyperinsulinemic-euglycemic clamp", "test system": "KKA diabetic mice", "conditions": "oral, 20 mg/kg four times at 12 h intervals", "how to read": "reference: untreated KKA mice", "endpoint": "glucose infusion rate", "value": "increased"}
{"Molecule": "COc1cc(/C=C/C(O)=C/C(=O)/C=C/c2ccc(OCc3ccccc3)c(OC)c2)ccc1O", "test": "IL-6 secretion, ELISA", "test system": "peritoneal macrophages, C57BL/6 mice", "conditions": "together with: LPS 10 ng/mL", "endpoint": "IC50", "value": "1810 ± 1310 nM"}
{"Molecule": "CCCOc1ccc(S(=O)(=O)NCCC2CCCN2C)cc1-c1nc2c(CCC)nn(C)c2c(=O)[nH]1 (stereo not shown)", "test": "blood pool echocardiography", "test system": "human adolescents after Fontan palliation", "conditions": "oral, 87.5 mg twice daily, day 5", "how to read": "reference: baseline, negative is improvement", "endpoint": "change in myocardial performance index", "value": "-0.12 ± 0.09"}
{"Molecule": "cilengitide", "test system": "Sprague-Dawley rats, TNBS colitis, colonic smooth muscle cells", "conditions": "ip, 18 mg/kg/day, 42 d", "endpoint": "active TGF-β1 level", "value": "1.42 ± 0.03 ng/mg protein"}
{"Molecule": "NCCCC[C@@H]1NC(=O)[C@@H](Cc2c[nH]c3ccccc23)NC(=O)[C@H](c2ccccc2)NC(=O)[C@@H]2C[C@@H](OC(=O)NCCN)CN2C(=O)[C@H](Cc2ccccc2)NC(=O)[C@H](Cc2ccc(OCc3ccccc3)cc2)NC1=O", "test": "GHRH-stimulated GH secretion", "test system": "healthy volunteers", "conditions": "subcutaneous, 1 µg, median", "how to read": "reference: pre-dose baseline", "endpoint": "change in GH AUC(0-2h)", "value": "8.1%"}
{"Molecule": "Cc1c2ccccc2c(C)c2c1ccc1ccccc12", "test": "item: adrenal hemorrhage", "test system": "rat", "conditions": "oral, in oil, against adrenal apoplexy from challenge, together with: challenge 5 mg iv", "endpoint": "minimum protective dose", "value": "2 mg"}
{"Molecule": "O=C(O)c1ccc(O)c(O)c1", "test system": "Sprague-Dawley rat, common carotid artery", "conditions": "dose not given, 5 days twice daily, shear-induced thrombosis", "endpoint": "thrombus protein content", "value": "51 ± 39 µg"}
{"Molecule": "O=C(N[C@H]1CCCC[C@@H]1O)[C@H]1CN(Cc2ccc(-n3cccn3)cc2)c2ccccc2O1", "test": "reversal of fear conditioning deficit, contextual fear conditioning", "test system": "rat", "conditions": "together with: risperidone 3 mg/kg", "endpoint": "minimum effective dose", "value": "1 mg/kg"}
{"Molecule": "CCCCC/C=C\\C/C=C\\CCCCCCCCP(=O)(OCC)OCC", "test system": "mouse", "conditions": "lingual, dose not given, together with: linoleic or oleic acid", "how to read": "reference: fatty acid alone", "endpoint": "chorda tympani nerve response", "value": "increased"}
{"Molecule": "C[C@H]1C[C@H]2CSC(N)=N[C@@]2(c2nc(NC(=O)c3ccc(OC(F)F)cn3)cs2)CO1", "test": "item: CSF sAPPα", "test system": "healthy adults", "conditions": "125 mg once daily, 14 days, day 15", "how to read": "reference: placebo-adjusted baseline", "endpoint": "change from baseline", "value": "72.9%"}
{"Molecule": "N=C(N)c1ccc(OCCCCCCCOc2ccc(C(=N)N)cc2)cc1", "test": "item: Atp2a1 exon 22", "test system": "HSA^LR mouse, DM1 model", "conditions": "ip, 30 mg/kg/day, 7 d", "endpoint": "exon inclusion", "value": "62 ± 4%"}
{"Molecule": "PACAP", "test": "qRT-PCR, GAPDH-normalised, item: RAGE", "test system": "APP V717I transgenic mouse, 6 months old, brain", "conditions": "intranasal, dose not given, 3 months", "how to read": "reference: vehicle-treated mice", "endpoint": "mRNA level", "value": "50.7 ± 7.8%"}
{"Molecule": "C[C@H](NC(=O)CCc1nc2cccnc2n1Cc1ccc(OC(F)(F)F)cc1)c1ccc(Cl)cc1", "test system": "C57BL/6 mouse, bleomycin fibrosis", "conditions": "oral, 10 mg/kg twice daily, 21 days, prophylactic", "endpoint": "modified Ashcroft score", "value": "decreased"}
{"note": "For quick reference, copied from above:"}
{"Molecule": "cilengitide", "test system": "Sprague-Dawley rats, TNBS colitis, colonic smooth muscle cells", "conditions": "ip, 18 mg/kg/day, 42 d", "endpoint": "active TGF-β1 level", "value": "1.42 ± 0.03 ng/mg protein"}
{"Molecule": "C[C@H]1CC[C@H](n2c3cnccc3c3cnc(Nc4ccc5c(n4)CCN(C(=O)CO)C5)nc32)CC1", "test": "STAT5 Tyr694 phosphorylation", "test system": "mouse, orthotopic MOLM13-Luc tumour, femur", "conditions": "plasma concentration, model estimate", "endpoint": "IC50", "value": "6.08 nM"}
{"Molecule": "CC(C)[C@](O)(c1ccc2cc(OC(F)F)c(OC(F)F)cc2c1)c1c[nH]nn1", "test system": "human patients", "conditions": "dose not given, cycle 2 day 1", "how to read": "reference: baseline", "endpoint": "serum estradiol decline median", "value": "-52%"}
